Published values pooled from the literature.
Protocols differ between the studies behind these lines. ± gives the spread as reported.
PROK: Proteinase K (PROK, Engyodontium album, UniProt P06873)
Chain of UniProt P06873 (whole entry, looked up): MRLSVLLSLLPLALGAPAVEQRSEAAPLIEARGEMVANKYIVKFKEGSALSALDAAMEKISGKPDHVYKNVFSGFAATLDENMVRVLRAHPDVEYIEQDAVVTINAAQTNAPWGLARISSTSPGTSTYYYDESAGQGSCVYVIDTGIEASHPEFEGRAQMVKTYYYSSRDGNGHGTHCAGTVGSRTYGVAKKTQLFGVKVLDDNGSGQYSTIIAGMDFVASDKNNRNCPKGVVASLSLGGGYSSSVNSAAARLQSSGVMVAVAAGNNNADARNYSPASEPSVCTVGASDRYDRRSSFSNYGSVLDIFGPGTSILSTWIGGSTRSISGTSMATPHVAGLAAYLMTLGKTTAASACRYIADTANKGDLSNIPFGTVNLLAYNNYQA
SCN5A: Sodium channel protein type 5 subunit alpha (SCN5A, Homo sapiens, UniProt Q14524)
Chain of UniProt Q14524 (whole entry, looked up): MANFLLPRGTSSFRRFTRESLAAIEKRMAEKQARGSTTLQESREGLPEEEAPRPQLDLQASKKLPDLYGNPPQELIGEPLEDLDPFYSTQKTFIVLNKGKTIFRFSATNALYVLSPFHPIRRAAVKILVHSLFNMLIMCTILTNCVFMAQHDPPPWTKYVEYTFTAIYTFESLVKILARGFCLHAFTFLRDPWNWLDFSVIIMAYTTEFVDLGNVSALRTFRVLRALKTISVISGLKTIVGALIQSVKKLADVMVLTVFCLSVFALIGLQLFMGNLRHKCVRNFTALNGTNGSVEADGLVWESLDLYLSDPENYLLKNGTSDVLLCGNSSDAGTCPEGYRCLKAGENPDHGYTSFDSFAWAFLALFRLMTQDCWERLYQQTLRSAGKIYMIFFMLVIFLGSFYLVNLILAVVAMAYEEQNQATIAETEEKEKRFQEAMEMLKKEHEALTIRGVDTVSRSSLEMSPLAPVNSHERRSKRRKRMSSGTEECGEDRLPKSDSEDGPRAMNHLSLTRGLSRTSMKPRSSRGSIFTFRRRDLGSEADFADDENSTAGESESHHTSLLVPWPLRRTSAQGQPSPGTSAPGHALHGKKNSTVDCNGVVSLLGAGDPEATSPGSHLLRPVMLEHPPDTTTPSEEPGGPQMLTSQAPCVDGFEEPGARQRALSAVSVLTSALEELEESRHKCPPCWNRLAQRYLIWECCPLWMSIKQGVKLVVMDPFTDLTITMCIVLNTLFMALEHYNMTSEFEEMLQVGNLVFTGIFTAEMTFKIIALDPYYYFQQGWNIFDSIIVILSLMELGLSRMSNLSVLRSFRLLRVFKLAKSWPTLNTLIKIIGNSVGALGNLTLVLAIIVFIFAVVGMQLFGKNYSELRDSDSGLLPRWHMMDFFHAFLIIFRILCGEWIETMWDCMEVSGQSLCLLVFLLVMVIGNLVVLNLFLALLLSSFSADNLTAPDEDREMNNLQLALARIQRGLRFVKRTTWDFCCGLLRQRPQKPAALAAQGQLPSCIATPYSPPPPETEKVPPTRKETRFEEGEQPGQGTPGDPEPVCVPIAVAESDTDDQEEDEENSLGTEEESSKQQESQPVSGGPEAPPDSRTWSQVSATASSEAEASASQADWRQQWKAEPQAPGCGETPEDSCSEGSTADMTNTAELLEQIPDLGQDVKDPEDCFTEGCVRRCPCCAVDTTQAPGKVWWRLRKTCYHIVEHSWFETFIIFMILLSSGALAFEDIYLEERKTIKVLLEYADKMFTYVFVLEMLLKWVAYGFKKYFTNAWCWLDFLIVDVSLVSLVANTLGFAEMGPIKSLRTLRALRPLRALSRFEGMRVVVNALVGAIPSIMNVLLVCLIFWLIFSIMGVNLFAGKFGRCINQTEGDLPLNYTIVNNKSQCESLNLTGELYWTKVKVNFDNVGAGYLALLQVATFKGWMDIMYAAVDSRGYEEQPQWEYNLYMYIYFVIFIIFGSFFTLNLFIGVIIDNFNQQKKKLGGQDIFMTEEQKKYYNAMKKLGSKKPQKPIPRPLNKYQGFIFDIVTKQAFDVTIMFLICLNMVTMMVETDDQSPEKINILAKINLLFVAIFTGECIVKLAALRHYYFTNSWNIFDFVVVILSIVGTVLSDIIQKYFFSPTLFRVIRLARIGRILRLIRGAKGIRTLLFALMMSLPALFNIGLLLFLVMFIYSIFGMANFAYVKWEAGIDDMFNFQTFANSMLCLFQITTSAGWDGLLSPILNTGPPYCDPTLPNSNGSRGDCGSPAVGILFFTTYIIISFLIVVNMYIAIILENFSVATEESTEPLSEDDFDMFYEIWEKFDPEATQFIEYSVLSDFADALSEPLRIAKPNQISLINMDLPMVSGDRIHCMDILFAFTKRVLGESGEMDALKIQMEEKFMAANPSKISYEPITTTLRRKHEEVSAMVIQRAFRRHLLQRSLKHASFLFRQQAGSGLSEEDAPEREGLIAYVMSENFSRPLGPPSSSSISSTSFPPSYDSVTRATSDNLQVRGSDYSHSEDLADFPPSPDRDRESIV
CYP1A2: Cytochrome P450 1A2 (CYP1A2, Homo sapiens, UniProt P05177)
Chain of UniProt P05181 (whole entry, looked up): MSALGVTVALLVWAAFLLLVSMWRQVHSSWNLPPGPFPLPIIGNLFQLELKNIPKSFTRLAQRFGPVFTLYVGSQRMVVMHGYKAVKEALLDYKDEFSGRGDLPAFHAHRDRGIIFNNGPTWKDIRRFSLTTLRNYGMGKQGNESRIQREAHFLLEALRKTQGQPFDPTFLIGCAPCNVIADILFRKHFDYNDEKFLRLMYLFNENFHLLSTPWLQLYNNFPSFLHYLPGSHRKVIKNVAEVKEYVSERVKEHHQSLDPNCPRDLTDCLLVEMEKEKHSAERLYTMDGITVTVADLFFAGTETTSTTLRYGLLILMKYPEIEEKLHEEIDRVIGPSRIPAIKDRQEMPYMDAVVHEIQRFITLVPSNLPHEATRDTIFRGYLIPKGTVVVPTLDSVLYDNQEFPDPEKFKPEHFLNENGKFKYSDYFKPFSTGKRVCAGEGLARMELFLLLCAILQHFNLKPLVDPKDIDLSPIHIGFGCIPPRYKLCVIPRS
Chain of UniProt P61073 (whole entry, looked up): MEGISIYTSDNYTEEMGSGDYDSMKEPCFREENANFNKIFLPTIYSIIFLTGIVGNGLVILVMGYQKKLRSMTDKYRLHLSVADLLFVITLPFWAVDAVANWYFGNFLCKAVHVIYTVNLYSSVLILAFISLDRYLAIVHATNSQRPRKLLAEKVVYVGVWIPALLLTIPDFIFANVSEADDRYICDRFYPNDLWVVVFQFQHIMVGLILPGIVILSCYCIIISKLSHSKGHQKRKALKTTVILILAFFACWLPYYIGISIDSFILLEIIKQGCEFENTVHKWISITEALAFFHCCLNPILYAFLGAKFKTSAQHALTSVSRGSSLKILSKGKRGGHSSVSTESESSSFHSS
Chain of UniProt P19111 (whole entry, looked up): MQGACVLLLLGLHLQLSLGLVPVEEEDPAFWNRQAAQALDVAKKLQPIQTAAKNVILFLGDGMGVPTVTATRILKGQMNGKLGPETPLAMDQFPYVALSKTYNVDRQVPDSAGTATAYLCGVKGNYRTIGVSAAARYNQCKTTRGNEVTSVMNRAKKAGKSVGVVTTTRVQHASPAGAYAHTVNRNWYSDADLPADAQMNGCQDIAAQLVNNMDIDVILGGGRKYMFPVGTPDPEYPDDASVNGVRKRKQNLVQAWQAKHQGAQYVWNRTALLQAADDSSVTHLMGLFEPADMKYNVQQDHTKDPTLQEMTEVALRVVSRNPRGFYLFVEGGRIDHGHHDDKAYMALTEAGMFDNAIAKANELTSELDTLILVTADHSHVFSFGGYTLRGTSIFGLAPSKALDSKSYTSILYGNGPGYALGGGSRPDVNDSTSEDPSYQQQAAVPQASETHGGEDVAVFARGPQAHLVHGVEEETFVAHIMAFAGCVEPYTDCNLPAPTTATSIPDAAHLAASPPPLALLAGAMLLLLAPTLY
Chain of UniProt P08684 (whole entry, looked up): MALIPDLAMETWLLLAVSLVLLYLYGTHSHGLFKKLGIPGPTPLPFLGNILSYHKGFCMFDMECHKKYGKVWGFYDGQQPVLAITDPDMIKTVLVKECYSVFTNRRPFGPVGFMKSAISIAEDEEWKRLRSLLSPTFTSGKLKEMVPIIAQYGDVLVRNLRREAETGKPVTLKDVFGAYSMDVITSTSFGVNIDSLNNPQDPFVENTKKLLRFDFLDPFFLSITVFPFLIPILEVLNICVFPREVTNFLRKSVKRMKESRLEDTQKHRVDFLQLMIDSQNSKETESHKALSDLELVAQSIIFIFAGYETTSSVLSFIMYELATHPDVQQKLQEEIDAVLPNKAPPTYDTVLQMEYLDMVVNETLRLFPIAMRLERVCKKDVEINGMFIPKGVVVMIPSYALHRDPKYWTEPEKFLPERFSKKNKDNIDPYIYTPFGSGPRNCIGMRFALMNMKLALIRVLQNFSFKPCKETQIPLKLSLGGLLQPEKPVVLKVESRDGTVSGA

SMILES | target | assay | test system | conditions | how to read | endpoint | value
CC[C@H](C)[C@H](NC(=O)[C@H](Cc1c[nH]cn1)NC(=O)[C@H](CC(N)=O)NC(=O)[C@H](Cc1ccccc1)NC(=O)[C@H](Cc1ccc(O)cc1)NC(=O)[C@H](Cc1ccc(O)cc1)NC(=O)[C@@H](NC(=O)[C@H](CCCNC(=N)N)NC(=O)CNC(=O)[C@H](CO)NC(=O)[C@H](CCn1cc(COCCOCCOCCOC)nn1)NC(=O)[C@H](CCCNC(=N)N)NC(=O)[C@H](CO)NC(=O)[C@H](CCSC)NC(=O)[C@H](CCCNC(=N)N)NC(=O)[C@H](CCCCN)NC(=O)[C@H](CCC(=O)O)NC(=O)[C@H](Cc1c[nH]c2ccccc12)NC(=O)CNC(=O)[C@@H]1CCCN1C(=O)[C@@H]1CCCN1C(=O)[C@H](CC(C)C)NC(=O)[C@@H](N)CCCCN)C(C)C)C(=O)N[C@H](C(=O)N[C@@H](CC(N)=O)C(=O)N[C@@H](C)C(=O)N[C@@H](CO)C(=O)N[C@@H](CCC(N)=O)C(=O)N[C@@H](Cc1ccccc1)C(=O)N[C@@H](CCC(=O)O)C(=O)N[C@@H](CCCNC(=N)N)C(=O)N1CCC[C@H]1C(=O)N[C@@H](CO)C(=O)NCC(=O)O)[C@@H](C)O | PROK | proteolysis, substrate, HPLC | – | room temperature | reference: PEGylated over non-PEGylated variant, negative = more stable | ln rate constant ratio | -0.2 ± 0.3
O=P([O-])([O-])Oc1ccc(-c2cc(=S)ss2)cc1.[Na+].[Na+] | ALPI (Bos taurus, UniProt P19111) | enzymatic hydrolysis, substrate | bovine intestinal mucosa enzyme | 300 µM, pH 7.4, 37 °C | – | half-life | < 5 s
CCN(Cc1ccccc1)C(=O)CCc1nc(CN2CCN(C(=O)Cc3ccc(OC)c(OC)c3)CC2)no1 | SCN5A | ion current, whole-cell patch clamp | HEK stably expressing channel | 10 µM | – | inhibition | 15 ± 6.9%
C=CC(=O)Nc1cc(Nc2nccc(-c3cn(C)c4ccccc34)n2)c(OCC(F)(F)F)nc1N(C)CCN(C)C | Cytochrome P450 3A4 (CYP3A4, Homo sapiens, UniProt P08684) | enzyme activity, inhibitor | human, liver microsomes | 10 µM, midazolam probe | – | activity vs control | 78%
CNC(=O)Oc1cc(C)c([S+](C)[O-])c(C)c1 (stereo not shown) | CYP1A2 | inhibitor | human liver microsomes | 10 µM, pH 7.4, added: phenacetin | – | inhibition | 7.66%
C=CC1CN2CCC1CC2C(O)c1c(-c2ccc(N=Nc3ccccc3)cc2)cnc2ccc(OC)cc12 (stereo not shown) | SCN5A | sodium current, blocker, whole-cell patch clamp | HEK-293T | 10 µM, pH 7.3, cis isomer use-dependent, added: light 365 nm | – | inhibition | 61.1 ± 4.8%
CC[C@H](C)[C@H](NC(=O)[C@H](Cc1c[nH]cn1)NC(=O)[C@H](CC(N)=O)NC(=O)[C@H](Cc1ccccc1)NC(=O)[C@H](Cc1ccc(O)cc1)NC(=O)[C@H](Cc1ccc(O)cc1)NC(=O)[C@@H](NC(=O)[C@H](CCCNC(=N)N)NC(=O)CNC(=O)[C@H](CO)NC(=O)[C@H](CO)NC(=O)[C@H](CCCNC(=N)N)NC(=O)[C@H](CO)NC(=O)[C@H](CCSC)NC(=O)[C@H](CCCNC(=N)N)NC(=O)[C@H](CCCCN)NC(=O)[C@H](CCC(=O)O)NC(=O)[C@H](Cc1c[nH]c2ccccc12)NC(=O)CNC(=O)[C@@H]1CCCN1C(=O)[C@@H]1CCCN1C(=O)[C@H](CC(C)C)NC(=O)[C@@H](N)CCCCN)C(C)C)C(=O)N[C@H](C(=O)N[C@@H](CC(N)=O)C(=O)N[C@@H](C)C(=O)N[C@@H](CC(=O)N(CCOCCOCCOCCOC)CCOCCOCCOCCOC)C(=O)N[C@@H](CCC(N)=O)C(=O)N[C@@H](Cc1ccccc1)C(=O)N[C@@H](CCC(=O)O)C(=O)N[C@@H](CCCNC(=N)N)C(=O)N1CCC[C@H]1C(=O)N[C@@H](CO)C(=O)NCC(=O)O)[C@@H](C)O | PROK | proteolysis, substrate, HPLC | – | room temperature | reference: PEGylated over non-PEGylated variant, negative = more stable | ln rate constant ratio | -1.5 ± 0.4
CC(C)(O)c1ccccc1CC[C@H](c1cccc(/C=C/c2ccc3ccc(Cl)cc3n2)c1)S(=O)(=O)CC1(CC(=O)O)CC1 | CYP1A2 | inhibitor | human liver microsomes | 10 µM, pH 7.4, added: phenacetin | – | inhibition | < 0%
CC[C@H](C)[C@H](NC(=O)[C@H](Cc1c[nH]cn1)NC(=O)[C@H](CC(N)=O)NC(=O)[C@H](Cc1ccccc1)NC(=O)[C@H](Cc1ccc(O)cc1)NC(=O)[C@H](Cc1ccc(O)cc1)NC(=O)[C@@H](NC(=O)[C@H](CCCNC(=N)N)NC(=O)CNC(=O)[C@H](CO)NC(=O)[C@H](CCC(=O)NCCOCCOCCOCCOC)NC(=O)[C@H](CCCNC(=N)N)NC(=O)[C@H](CO)NC(=O)[C@H](CCSC)NC(=O)[C@H](CCCNC(=N)N)NC(=O)[C@H](CCCCN)NC(=O)[C@H](CCC(=O)O)NC(=O)[C@H](Cc1c[nH]c2ccccc12)NC(=O)CNC(=O)[C@@H]1CCCN1C(=O)[C@@H]1CCCN1C(=O)[C@H](CC(C)C)NC(=O)[C@@H](N)CCCCN)C(C)C)C(=O)N[C@H](C(=O)N[C@@H](CC(N)=O)C(=O)N[C@@H](C)C(=O)N[C@@H](CO)C(=O)N[C@@H](CCC(N)=O)C(=O)N[C@@H](Cc1ccccc1)C(=O)N[C@@H](CCC(=O)O)C(=O)N[C@@H](CCCNC(=N)N)C(=O)N1CCC[C@H]1C(=O)N[C@@H](CO)C(=O)NCC(=O)O)[C@@H](C)O | PROK | proteolysis, substrate, HPLC | – | room temperature | reference: PEGylated over non-PEGylated variant, negative = more stable | ln rate constant ratio | -0.3 ± 0.3
CC[C@H](C)[C@@H]1NC(=O)[C@H](C(C)C)NC(=O)[C@H](C(C)C)NC(=O)[C@H](CC(C)C)NC(=O)C[C@@H](C(=O)N[C@@H](Cc2c[nH]c3ccccc23)C(=O)N[C@@H](CC(N)=O)C(=O)N[C@@H](C)C(=O)N2CCC[C@H]2C(=O)NCC(=O)N[C@@H](Cc2c[nH]c3ccccc23)C(=O)N[C@@H](Cc2ccccc2)C(=O)O)NC(=O)[C@H](C)NC(=O)[C@H](CCC(N)=O)NC(=O)[C@H](C(C)C)NC1=O | carboxypeptidase Y | – | – | 12 h, pH 6.0, 28 °C | – | proteolytic stability | stable
[64Cu+2].c1ccc(CNCc2ccc(CN3CCCNCCNCCCNCC3)cc2)nc1 | CXCR4 | – | NOD/SCID mouse, U87 and U87-stb-CXCR4 xenografts, spleen | iv, 90 min, no blocking dose, ex vivo | – | tissue uptake | 3.65 ± 0.07 %ID/g
Oc1c(Br)cccc1Br | Cytochrome P450 2E1 (CYP2E1, Homo sapiens, UniProt P05181) | p-nitrophenol hydroxylation, inhibitor | – | 10 min, added: p-nitrophenol 100 µM | – | IC50 | 29 µM
CN1C(=O)[C@@H](Cc2ccc(O)cc2)NC(=O)CNC(=O)[C@H](Cc2ccc3ccccc3c2)NC(=O)[C@H](CCCNC(=N)N)NC(=O)[C@H]1CCCNC(=O)c1ccc(CNC(=O)CN2CCN(CC(=O)O)CCN(CC(=O)O)CCN(CC(=O)O)CC2)cc1 [gallium-68 labelled] | CXCR4 (Homo sapiens, UniProt P61073) | PET imaging | human, spleen | – | – | SUVmean | 5.69
CCN(CC)CCOc1ccc(-c2nnn(Cc3ccc(OC)cc3)c2N)cc1 | CYP1A2 | enzyme activity, inhibitor | – | concentration not given | – | inhibition | no inhibition
CC[C@H](C)[C@H](NC(=O)[C@H](Cc1c[nH]cn1)NC(=O)[C@H](CC(N)=O)NC(=O)[C@H](Cc1ccccc1)NC(=O)[C@H](Cc1ccc(O)cc1)NC(=O)[C@H](Cc1ccc(O)cc1)NC(=O)[C@@H](NC(=O)[C@H](CCCNC(=N)N)NC(=O)CNC(=O)[C@H](CO)NC(=O)[C@H](CO)NC(=O)[C@H](CCCNC(=N)N)NC(=O)[C@H](CO)NC(=O)[C@H](CCSC)NC(=O)[C@H](CCCNC(=N)N)NC(=O)[C@H](CCCCN)NC(=O)[C@H](CCC(=O)O)NC(=O)[C@H](Cc1c[nH]c2ccccc12)NC(=O)CNC(=O)[C@@H]1CCCN1C(=O)[C@@H]1CCCN1C(=O)[C@H](CC(C)C)NC(=O)[C@@H](N)CCCCN)C(C)C)C(=O)N[C@H](C(=O)N[C@@H](CC(N)=O)C(=O)N[C@@H](C)C(=O)N[C@@H](Cc1ccc(OCc2cn(CCOCCOCCOCCOC)nn2)cc1)C(=O)N[C@@H](CCC(N)=O)C(=O)N[C@@H](Cc1ccccc1)C(=O)N[C@@H](CCC(=O)O)C(=O)N[C@@H](CCCNC(=N)N)C(=O)N1CCC[C@H]1C(=O)N[C@@H](CO)C(=O)NCC(=O)O)[C@@H](C)O | PROK | proteolysis, substrate, HPLC | – | room temperature | reference: PEGylated over non-PEGylated variant, negative = more stable | ln rate constant ratio | -0.1 ± 0.5
CC(C)(O)c1ccccc1CC[C@H](c1cccc(/C=C/c2ccc3ccc(Cl)cc3n2)c1)[S+]([O-])CC1(CC(=O)O)CC1 (stereo partly shown) | CYP1A2 | inhibitor | human liver microsomes | 10 µM, pH 7.4, added: phenacetin | – | inhibition | 1.35%

A few entries again:
SMILES | target | assay | test system | conditions | how to read | endpoint | value
CC[C@H](C)[C@H](NC(=O)[C@H](Cc1c[nH]cn1)NC(=O)[C@H](CC(N)=O)NC(=O)[C@H](Cc1ccccc1)NC(=O)[C@H](Cc1ccc(O)cc1)NC(=O)[C@H](Cc1ccc(O)cc1)NC(=O)[C@@H](NC(=O)[C@H](CCCNC(=N)N)NC(=O)CNC(=O)[C@H](CO)NC(=O)[C@H](CO)NC(=O)[C@H](CCCNC(=N)N)NC(=O)[C@H](CO)NC(=O)[C@H](CCSC)NC(=O)[C@H](CCCNC(=N)N)NC(=O)[C@H](CCCCN)NC(=O)[C@H](CCC(=O)O)NC(=O)[C@H](Cc1c[nH]c2ccccc12)NC(=O)CNC(=O)[C@@H]1CCCN1C(=O)[C@@H]1CCCN1C(=O)[C@H](CC(C)C)NC(=O)[C@@H](N)CCCCN)C(C)C)C(=O)N[C@H](C(=O)N[C@@H](CC(N)=O)C(=O)N[C@@H](C)C(=O)N[C@@H](Cc1ccc(OCc2cn(CCOCCOCCOCCOC)nn2)cc1)C(=O)N[C@@H](CCC(N)=O)C(=O)N[C@@H](Cc1ccccc1)C(=O)N[C@@H](CCC(=O)O)C(=O)N[C@@H](CCCNC(=N)N)C(=O)N1CCC[C@H]1C(=O)N[C@@H](CO)C(=O)NCC(=O)O)[C@@H](C)O | PROK | proteolysis, substrate, HPLC | – | room temperature | reference: PEGylated over non-PEGylated variant, negative = more stable | ln rate constant ratio | -0.1 ± 0.5
CC(C)(O)c1ccccc1CC[C@H](c1cccc(/C=C/c2ccc3ccc(Cl)cc3n2)c1)[S+]([O-])CC1(CC(=O)O)CC1 (stereo partly shown) | CYP1A2 | inhibitor | human liver microsomes | 10 µM, pH 7.4, added: phenacetin | – | inhibition | 1.35%
